Published values from different studies.
Compare with care: the assays were run in different laboratories. ± gives the spread as reported.
U2AF2: U2AF2 148-342 (Homo sapiens, UniProt P26368)
Sequence of UniProt P26368 (whole entry, looked up): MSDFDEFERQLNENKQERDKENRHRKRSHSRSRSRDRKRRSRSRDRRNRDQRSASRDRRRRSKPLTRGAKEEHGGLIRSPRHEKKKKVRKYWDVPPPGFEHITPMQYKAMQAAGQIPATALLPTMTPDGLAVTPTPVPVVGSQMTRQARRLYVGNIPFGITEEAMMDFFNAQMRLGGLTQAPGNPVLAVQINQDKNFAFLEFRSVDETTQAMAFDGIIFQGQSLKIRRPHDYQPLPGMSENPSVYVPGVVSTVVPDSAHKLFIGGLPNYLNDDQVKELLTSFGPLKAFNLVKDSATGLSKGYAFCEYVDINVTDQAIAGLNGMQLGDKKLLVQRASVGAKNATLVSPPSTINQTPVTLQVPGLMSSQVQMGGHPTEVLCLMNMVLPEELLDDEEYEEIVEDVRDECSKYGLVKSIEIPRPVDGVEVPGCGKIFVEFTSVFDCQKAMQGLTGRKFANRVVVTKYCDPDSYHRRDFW
B1: RAD1 (Homo sapiens, UniProt O60671); sequence looked up; chain MPLLTQQIQDEDDQYSLVASLDNVRNLSTILKAIHFREHATCFATKNGIKVTVENAKCVQANAFIQAGIFQEFKVQEESVTFRINLTVLLDCLSIFGSSPMPGTLTALRMCYQGYGYPLMLFLEEGGVVTVCKINTQEPEETLDFDFCSTNVINKIILQSEGLREAFSELDMTSEVLQITMSPDKPYFRLSTFGNAGSSHLDYPKDSDLMEAFHCNQTQVNRYKISLLKPSTKALVLSCKVSIRTDNRGFLSLQYMIRNEDGQICFVEYYCCPDEEVPESES
B2: mdfA (Bacillus subtilis, UniProt O31597); chain MLFLHDVWVNWFEGEENGYNVCHFHEWRKEDTVELLDQVPLLRVPSVLFHYIENDLSELPKGLLEDVHQKSYIRKNHERTKLEYCFVVTDGIGILAVDTIGYTIPVRKSRLIPRQEQLVYEMVKDVEPETYEFEPKKLESSKEYHILSLAPEHVRGLTRKERQIKQLMFMALDQLKGLKNRAEIGYWYTEWNPHMYEQIKRMSFEEIWDMLYNETIEGWSDKHLAFCENLIKGQPFFEKLWEMENESKVN
B3: ELM1 421-640 (Saccharomyces cerevisiae, UniProt P32801); sequence looked up; chain SSSSVNPVRNEGPVRRFFGRLLTKKGKKKTSGKGKDKVLVSATSKVTPSIHIDEEPDKECFSTTVLRSSPDSSDYCSSLGEEAIQVTDFLDTFCRSNESLPNLTVNNDKQNSDMKTDRSESSSHSSLKIPTPIKAMIRLKSSPKENGNRTHINCSQDKPSSPLMDRTVGKRTVNNSGARKLAHSSNILNFKAYINSEDSDIRETVEDVKTYLNFADNGQI
B4: TIM10 8-93 (Saccharomyces cerevisiae, UniProt P87108); sequence looked up; chain GGQPQLSSQQKIQAAEAELDLVTDMFNKLVNNCYKKCINTSYSEGELNKNESSCLDRCVAKYFETNVQVGENMQKMGQSFNAAGKF
B5: CLNS1A 2-237 (Homo sapiens, UniProt P54105); sequence looked up; chain SFLKSFPPPGPAEGLLRQQPDTEAVLNGKGLGTGTLYIAESRLSWLDGSGLGFSLEYPTISLHALSRDRSDCLGEHLYVMVNAKFEEESKEPVADEEEEDSDDDVEPITEFRFVPSDKSALEAMFTAMCECQALHPDPEDEDSDDYDGEEYDVEAHEQGQGDIPTFYTYEEGLSHLTAEGQATLERLEGMLSQSVSSQYNMAGVRTEDSIRDYEDGMEVDTTPTVAGQFEDADVDH
B6: PSMG3/PSMG4 heterodimer (Homo sapiens); chain 1 MEDTPLVISKQKTEVVCGVPTQVVCTAFSSHILVVVTQFGKMGTLVSLEPSSVASDVSKPVLTTKVLLGQDEPLIHVFAKNLVAFVSQEAGNRAVLLAVAVKDKSMEGLKALREVIRVCQVW; chain 2 MEGLVVAAGGDVSLHNFSARLWEQLVHFHVMRLTDSLFLWVGATPHLRNLAVAMCSRYDSIPVSTSLLGDTSDTTSTGLAQRLARKTNKQVFVSYNLQNTDSNFALLVENRIKEEMEAFPEKF
B7: TOMM20 cytosolic domain, 62-127 (Homo sapiens, UniProt Q15388); chain CDAEAVQKFFLEEIQLGEELLAQGEYEKGVDHLTNAIAVCGQPQQLLQVLQQTLPPPVFQMLLTKLP
B8: PSMD10 1-226 L209R (Homo sapiens, UniProt O75832); chain MEGCVSNLMVCNLAYSGKLEELKESILADKSLATRTDQDSRTALHWACSAGHTEIVEFLLQLGVPVNDKDDAGWSPLHIAASAGRDEIVKALLGKGAQVNAVNQNGCTPLHYAASKNRHEIAVMLLEGGANPDAKDHYEATAMHRAAAKGNLKMIHILLYYKASTNIQDTEGNTPLHLACDEERVEEAKLLVSQGASIYIENKEEKTPRQVAKGGLGLILKRMVEG
B9: gamma-glutamylcyclotransferase (human); sequence looked up; chain MANSGCKDVTGPDEESFLYFAYGSNLLTERIHLRNPSAAFFCVARLQDFKLDFGNSQGKTSQTWHGGIATIFQSPGDEVWGVVWKMNKSNLNSLDEQEGVKSGMYVVIEVKVATQEGKEITCRSYLMTNYESAPPSPQYKKIICMGAKENGLPLEYQEKLKAIEPNDYTGKVSEEIEDIIKKGETQTL
B10: TFC4 1-1025 (Saccharomyces cerevisiae, UniProt P33339); chain MAAGKLKKEQQNQSAERESADTGKVNDEDEEHLYGNIDDYKHLIQDEEYDDEDVPHDLQLSEDEYNSERDSSLLAEFSDYGEISEDDEEDFMNAIREASNFKVKKKKKNDKGKSYGRQRKERVLDPEVAQLLSQANEAFVRNDLQVAERLFNEVIKKDARNFAAYETLGDIYQLQGRLNDCCNSWFLAAHLNASDWEFWKIVAILSADLDHVRQAIYCFSRVISLNPMEWESIYRRSMLYKKTGQLARALDGFQRLYMYNPYDANILRELAILYVDYDRIEDSIELYMKVFNANVERREAILAALENALDSSDEESAAEGEDADEKEPLEQDEDRQMFPDINWKKIDAKYKCIPFDWSSLNILAELFLKLAVSEVDGIKTIKKCARWIQRRESQTFWDHVPDDSEFDNRRFKNSTFDSLLAAEKEKSYNIPIDIRVRLGLLRLNTDNLVEALNHFQCLYDETFSDVADLYFEAATALTRAEKYKEAIDFFTPLLSLEEWRTTDVFKPLARCYKEIESYETAKEFYELAIKSEPDDLDIRVSLAEVYYRLNDPETFKHMLVDVVEMRKHQVDETLHRISNEKSSNDTSDISSKPLLEDSKFRTFRKKKRTPYDAERERIERERRITAKVVDKYEKMKKFELNSGLNEAKQASIWINTVSELVDIFSSVKNFFMKSRSRKFVGILRRTKKFNTELDFQIERLSKLAEGDSVFEGPLMEERVTLTSATELRGLSYEQWFELFMELSLVIAKYQSVEDGLSVVETAQEVNVFFQDPERVKMMKFVKLAIVLQMDDEEELAENLRGLLNQFQFNRKVLQVFMYSLCRGPSSLNILSSTIQQKFFLRQLKAFDSCRYNTEVNGQASITNKEVYNPNKKSSPYLYYIYAVLLYSSRGFLSALQYLTRLEEDIPDDPMVNLLMGLSHIHRAMQRLTAQRHFQIFHGLRYLYRYHKIRKSLYTDLEKQEADYNLGRAFHLIGLVSIAIEYYNRVLENYDDGKLKKHAAYNSIIIYQQSGNVELADHLMEKYLSI
B11: ATG9 864-997 (Saccharomyces cerevisiae, UniProt Q12142); sequence looked up; chain SFLNNKYSWRKQFQPGQKPELFRIGKHALGPGHNISPAIYSTRNPGKNWDNNNNGDDIKNGTNNATAKNDDNNGNNDHEYVLTESFLDSGAFPNHDVIDHNKMLNSNYNGNGILNKGGVLGLVKEYYKKSDVGR
B12: Pri1 (Saccharomyces cerevisiae, UniProt P10363); sequence looked up; chain MTNSVKTNGPSSSDMEYYYKSLYPFKHIFNWLNHSPKPSRDMINREFAMAFRSGAYKRYNSFNSVQDFKAQIEKANPDRFEIGAIYNKPPRERDTLLKSELKALEKELVFDIDMDDYDAFRTCCSGAQVCSKCWKFISLAMKITNTALREDFGYKDFIWVFSGRRGAHCWVSDKRARALTDVQRRNVLDYVNVIRDRNTDKRLALKRPYHPHLARSLEQLKPFFVSIMLEEQNPWEDDQHAIQTLLPALYDKQLIDSLKKYWLDNPRRSSKEKWNDIDQIATSLFKGPKQDSHIIKLRECKEDLVLMTLYPKLDVEVTKQTIHLLKAPFCIHPATGNVCVPIDESFAPEKAPKLIDLQTEMEKNNDVSLTALQPFINQFQAYVSSLLKNELGSVKREREDDDEPASLDF
B13: ATG9 2-318 (Saccharomyces cerevisiae, UniProt Q12142); sequence looked up; chain ERDEYQLPNSHGKNTFLSRIFGLQSDEVNPSLNSQEMSNFPLPDIERGSSLLHSTNDSREDVDENDLRVPESDQGTSTEEEDEVDEEQVQAYAPQISDGLDGDHQLNSVTSKENVLETEKSNLERLVEGSTDDSVPKVGQLSSEEEEDNEFINNDGFDDDTPLFQKSKIHEFSSKKSNTIEDGKRPLFFRHILQNNRPQRDTQKLFTSSNAIHHDKDKSANNGPRNINGNQKHGTKYFGSATQPRFTGSPLNNTNRFTKLFPLRKPNLLSNISVLNNTPEDRINTLSVKERALWKWANVENLDIFLQDVYNYYLGNG
Sequence of UniProt Q06671 (whole entry, unmodified, looked up): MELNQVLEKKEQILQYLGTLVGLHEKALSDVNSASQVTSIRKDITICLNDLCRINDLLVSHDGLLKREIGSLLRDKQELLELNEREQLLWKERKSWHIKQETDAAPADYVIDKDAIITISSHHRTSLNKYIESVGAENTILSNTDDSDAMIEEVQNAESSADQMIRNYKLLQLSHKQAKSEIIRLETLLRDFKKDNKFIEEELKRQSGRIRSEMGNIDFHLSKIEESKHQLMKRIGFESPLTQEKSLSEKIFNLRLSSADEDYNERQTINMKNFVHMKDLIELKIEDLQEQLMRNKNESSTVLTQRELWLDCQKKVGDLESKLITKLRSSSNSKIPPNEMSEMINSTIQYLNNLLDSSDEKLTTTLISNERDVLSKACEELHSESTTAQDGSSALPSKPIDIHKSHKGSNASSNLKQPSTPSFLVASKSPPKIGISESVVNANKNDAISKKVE
Sequence of UniProt P25788 (whole entry, looked up): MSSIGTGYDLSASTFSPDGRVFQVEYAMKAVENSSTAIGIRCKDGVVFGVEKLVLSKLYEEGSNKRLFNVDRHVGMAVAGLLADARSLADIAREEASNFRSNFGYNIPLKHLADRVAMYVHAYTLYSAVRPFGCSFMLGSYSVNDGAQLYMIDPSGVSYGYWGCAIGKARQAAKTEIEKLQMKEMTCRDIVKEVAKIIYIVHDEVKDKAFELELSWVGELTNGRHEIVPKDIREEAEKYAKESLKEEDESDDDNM
Sequence of UniProt P13393 (whole entry, looked up): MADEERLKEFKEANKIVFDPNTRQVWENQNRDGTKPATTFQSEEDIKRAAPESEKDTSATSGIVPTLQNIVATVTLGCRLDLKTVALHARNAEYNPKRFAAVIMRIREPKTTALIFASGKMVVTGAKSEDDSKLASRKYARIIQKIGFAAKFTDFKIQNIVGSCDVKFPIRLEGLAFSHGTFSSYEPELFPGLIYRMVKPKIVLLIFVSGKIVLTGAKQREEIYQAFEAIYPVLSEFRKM
Sequence of UniProt P48727 (whole entry, looked up): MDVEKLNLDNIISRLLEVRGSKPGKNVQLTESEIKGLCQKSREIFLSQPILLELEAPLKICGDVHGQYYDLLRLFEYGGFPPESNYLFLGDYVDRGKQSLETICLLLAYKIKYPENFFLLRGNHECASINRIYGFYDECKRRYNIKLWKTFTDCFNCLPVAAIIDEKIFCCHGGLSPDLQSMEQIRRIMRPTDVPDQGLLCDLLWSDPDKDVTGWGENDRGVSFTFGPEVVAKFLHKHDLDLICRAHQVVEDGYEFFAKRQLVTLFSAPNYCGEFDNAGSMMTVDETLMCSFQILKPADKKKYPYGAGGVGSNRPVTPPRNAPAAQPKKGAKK
Sequence of UniProt O74700 (whole entry, looked up): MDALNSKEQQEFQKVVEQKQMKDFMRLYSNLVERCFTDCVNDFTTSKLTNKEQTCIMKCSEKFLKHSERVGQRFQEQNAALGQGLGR
Sequence of UniProt Q9Z2G0 (whole entry, looked up): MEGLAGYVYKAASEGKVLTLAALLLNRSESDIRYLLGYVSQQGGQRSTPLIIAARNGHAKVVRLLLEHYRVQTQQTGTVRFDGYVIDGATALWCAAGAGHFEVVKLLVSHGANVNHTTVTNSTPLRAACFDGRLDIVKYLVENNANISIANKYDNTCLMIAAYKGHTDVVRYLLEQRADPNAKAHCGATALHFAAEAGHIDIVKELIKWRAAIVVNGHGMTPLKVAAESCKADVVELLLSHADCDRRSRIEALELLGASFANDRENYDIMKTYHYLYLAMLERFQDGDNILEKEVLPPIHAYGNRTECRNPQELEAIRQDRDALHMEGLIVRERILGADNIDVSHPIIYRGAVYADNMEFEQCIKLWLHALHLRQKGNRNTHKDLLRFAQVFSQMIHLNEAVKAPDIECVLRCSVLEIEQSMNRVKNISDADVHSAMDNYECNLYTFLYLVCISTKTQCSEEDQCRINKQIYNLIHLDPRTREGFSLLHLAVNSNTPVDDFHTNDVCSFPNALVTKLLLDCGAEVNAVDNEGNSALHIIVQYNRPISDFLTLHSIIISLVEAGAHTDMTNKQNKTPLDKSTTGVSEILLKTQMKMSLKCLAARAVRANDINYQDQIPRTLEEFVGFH
Sequence of UniProt P23804 (whole entry, looked up): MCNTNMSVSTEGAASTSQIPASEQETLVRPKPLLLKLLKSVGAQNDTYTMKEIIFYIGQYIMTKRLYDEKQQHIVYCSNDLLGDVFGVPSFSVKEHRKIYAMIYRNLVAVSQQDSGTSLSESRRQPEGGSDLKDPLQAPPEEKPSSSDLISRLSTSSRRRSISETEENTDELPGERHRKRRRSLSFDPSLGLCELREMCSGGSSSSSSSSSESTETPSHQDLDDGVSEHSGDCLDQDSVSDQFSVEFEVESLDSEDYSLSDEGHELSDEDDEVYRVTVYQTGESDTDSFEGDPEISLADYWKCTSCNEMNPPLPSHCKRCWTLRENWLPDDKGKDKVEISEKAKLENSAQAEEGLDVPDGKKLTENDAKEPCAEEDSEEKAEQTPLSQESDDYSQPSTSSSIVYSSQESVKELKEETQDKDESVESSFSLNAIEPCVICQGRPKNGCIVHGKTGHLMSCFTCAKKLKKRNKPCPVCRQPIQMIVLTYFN
Sequence of UniProt Q8IXI2 (whole entry, looked up): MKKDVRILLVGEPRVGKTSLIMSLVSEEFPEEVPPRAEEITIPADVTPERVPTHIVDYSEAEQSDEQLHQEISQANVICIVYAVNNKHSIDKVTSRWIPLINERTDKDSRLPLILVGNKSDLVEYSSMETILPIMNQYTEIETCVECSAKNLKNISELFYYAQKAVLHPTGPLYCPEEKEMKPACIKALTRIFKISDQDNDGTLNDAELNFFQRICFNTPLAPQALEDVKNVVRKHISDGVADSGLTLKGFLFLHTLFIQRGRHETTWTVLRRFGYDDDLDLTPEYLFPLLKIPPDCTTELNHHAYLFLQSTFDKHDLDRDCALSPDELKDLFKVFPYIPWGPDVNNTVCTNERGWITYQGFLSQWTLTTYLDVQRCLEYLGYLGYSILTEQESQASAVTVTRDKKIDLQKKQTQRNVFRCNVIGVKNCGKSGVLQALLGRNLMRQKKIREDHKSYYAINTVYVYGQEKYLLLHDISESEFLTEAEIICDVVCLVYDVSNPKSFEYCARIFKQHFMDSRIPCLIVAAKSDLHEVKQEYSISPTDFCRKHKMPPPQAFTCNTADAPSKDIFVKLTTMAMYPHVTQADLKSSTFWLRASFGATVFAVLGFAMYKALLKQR
Sequence of UniProt Q9FEE2 (whole entry, looked up): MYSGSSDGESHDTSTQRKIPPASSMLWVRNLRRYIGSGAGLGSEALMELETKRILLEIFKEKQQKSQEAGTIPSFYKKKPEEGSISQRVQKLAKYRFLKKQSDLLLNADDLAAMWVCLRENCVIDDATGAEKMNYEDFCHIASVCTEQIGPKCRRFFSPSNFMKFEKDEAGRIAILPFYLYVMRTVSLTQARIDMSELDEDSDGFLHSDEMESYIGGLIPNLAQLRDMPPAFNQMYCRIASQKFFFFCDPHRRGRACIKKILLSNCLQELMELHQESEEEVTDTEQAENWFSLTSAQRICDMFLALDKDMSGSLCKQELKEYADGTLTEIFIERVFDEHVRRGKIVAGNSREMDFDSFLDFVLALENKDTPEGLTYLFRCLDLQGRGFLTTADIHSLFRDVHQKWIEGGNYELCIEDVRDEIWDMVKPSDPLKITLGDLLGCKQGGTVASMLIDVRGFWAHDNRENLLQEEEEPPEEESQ
Sequence of UniProt P20457 (whole entry, looked up): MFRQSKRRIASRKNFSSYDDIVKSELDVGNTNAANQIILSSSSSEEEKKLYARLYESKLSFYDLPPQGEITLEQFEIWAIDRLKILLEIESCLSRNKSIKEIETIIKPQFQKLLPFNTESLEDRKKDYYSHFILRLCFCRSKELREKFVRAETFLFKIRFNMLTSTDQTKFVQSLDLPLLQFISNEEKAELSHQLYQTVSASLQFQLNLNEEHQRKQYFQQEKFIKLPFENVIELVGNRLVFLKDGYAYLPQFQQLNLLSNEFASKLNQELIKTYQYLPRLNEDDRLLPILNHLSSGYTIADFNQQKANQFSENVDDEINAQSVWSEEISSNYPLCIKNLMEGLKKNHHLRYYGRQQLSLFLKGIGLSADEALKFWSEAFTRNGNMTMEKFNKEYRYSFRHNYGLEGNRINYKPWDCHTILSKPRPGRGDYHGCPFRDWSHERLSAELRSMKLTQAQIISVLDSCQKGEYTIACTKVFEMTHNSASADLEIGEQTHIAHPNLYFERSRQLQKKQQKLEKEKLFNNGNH
Sequence of UniProt Q9MA75 (whole entry, looked up): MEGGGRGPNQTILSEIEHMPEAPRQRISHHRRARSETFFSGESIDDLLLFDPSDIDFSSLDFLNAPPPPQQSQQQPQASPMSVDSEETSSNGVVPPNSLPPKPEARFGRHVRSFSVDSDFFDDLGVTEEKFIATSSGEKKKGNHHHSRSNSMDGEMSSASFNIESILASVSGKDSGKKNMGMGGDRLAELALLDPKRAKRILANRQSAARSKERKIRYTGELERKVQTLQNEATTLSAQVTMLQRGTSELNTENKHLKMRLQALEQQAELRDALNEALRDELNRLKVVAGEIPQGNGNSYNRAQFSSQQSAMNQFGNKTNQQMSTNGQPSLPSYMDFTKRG

| Molecule | target or system | assay | test system | conditions | how to read | measurement | value |
| --- | --- | --- | --- | --- | --- | --- | --- |
| B1 (RAD1) | LIG1 233-534 (Homo sapiens, UniProt P18858) | pull-down | – | 1 hr, 4 °C | – | binding | binds |
| ATQISDLSKRKPKTEDFLTFLCLRGSPALP (JARID2 141-170 (Homo sapiens, UniProt Q92833); sequence looked up) | SUZ12/RBBP4 SUZ12 76-545 (Homo sapiens) | pull-down | – | – | – | binding | binds |
| B2 (mdfA) | clpC E280A/E618A (Bacillus subtilis, UniProt P37571) | SEC | – | added: ATP | – | binding | binds |
| B3 (ELM1 421-640) | GIN4 K48A (Saccharomyces cerevisiae, UniProt Q12263) | pull-down | – | – | – | binding | binds |
| B4 (TIM10 8-93) | TIM9 1-87 (Saccharomyces cerevisiae, UniProt O74700) | SEC | – | – | – | binding | binds |
| RKAKTKEGKGPNARRK (CHD4 258-273 (Homo sapiens, UniProt Q14839); sequence looked up) | ATRX 1-321 Y203A (Homo sapiens, UniProt P46100) | ITC | peptide | 25 °C | – | binding | binds |
| AUUUCAGUU (ssRNA) | U2AF2 | sequencing of bound RNA | RNA | motif only | – | Kd | 5.16 µM |
| B5 (CLNS1A 2-237) | PRMT5/WDR77 fragment (Homo sapiens) | fluorescence polarization | – | – | – | binding | binds |
| B6 (PSMG3/PSMG4 heterodimer) | PSMA3 (Homo sapiens, UniProt P25788) | cryo-EM | – | – | – | binding | binds |
| CTOP | – | RP-HPLC | HALO Peptide ES-C18 column | 25 µM, formic acid/acetonitrile, 10 min gradient | – | retention time | 3.99 min |
| B7 | Fem1b (Mus musculus, UniProt Q9Z2G0) | fluorescence polarisation | – | – | – | binding | binds |
| B8 (PSMD10 1-226 L209R) | Mdm2 (Mus musculus, UniProt P23804) | pull-down | – | – | – | binding | binds |
| DSVGLAVILHTDSR (PRKN 115-128 (Homo sapiens, UniProt O60260); sequence looked up) | RHOT1 181-579 (Homo sapiens, UniProt Q8IXI2) | competition with peptide, cross-linking | peptide | – | – | binding | binds |
| B9 (gamma-glutamylcyclotransferase) | PP6C (human) | co-immunoprecipitation, IP-MS | CYB5R4 knockout cells | concentration not given | baseline: CYB5R4 knockout over parental | log2 fold change | 0.23 |
| B10 (TFC4 1-1025) | TFC3 1-1160 (Saccharomyces cerevisiae, UniProt P34111) | cryo-EM | – | – | – | binding | binds |
| AUUUCAUUU (ssRNA) | U2AF2 | sequencing of bound RNA | RNA | motif only | – | Kd | 7.57 µM |
| B11 (ATG9 864-997) | ATG23 A34E (UniProt Q06671) | pull-down | – | 2 µM | – | binding | binds |
| human integrin beta-1 | PP6C (human) | co-immunoprecipitation, IP-MS | CYB5R4 knockout cells | concentration not given | baseline: CYB5R4 knockout over parental | log2 fold change | 4.08 |
| B12 (Pri1) | PRI2 (Saccharomyces cerevisiae, UniProt P20457) | cryo-EM | – | – | – | binding | binds |
| GFLSPAGNRPPPVSAHNSILKTAKGGQSASRGRIRFRADVPRGADESIEDNG (mel-28 1047-1098 (Caenorhabditis elegans, UniProt Q18508); sequence looked up) | gsp-2 (Caenorhabditis elegans, UniProt P48727) | pull-down | – | – | – | binding | binds |
| B13 (ATG9 2-318) | ATG23 (Saccharomyces cerevisiae, UniProt Q06671) | pull-down | – | – | – | binding | binds |
| CCGGGTTCCTGTTTCCCGGCCGCGGCCACTCCAGATCAAGTCAATCGGTCC (dsDNA; 5'-amino-C6 primer) | SPT15 full length assumed (Saccharomyces cerevisiae, UniProt P13393) | array | double-stranded DNA, one strand shown | TBP alone | – | Kd | 0.00221 ± 0.00027 µM |
| VIP1 (Arabidopsis thaliana, UniProt Q9MA75) | FASS (Arabidopsis thaliana, UniProt Q9FEE2) | pull-down | – | – | – | binding | binds |

A few entries again:
| Molecule | target or system | assay | test system | conditions | how to read | measurement | value |
| --- | --- | --- | --- | --- | --- | --- | --- |
| human integrin beta-1 | PP6C (human) | co-immunoprecipitation, IP-MS | CYB5R4 knockout cells | concentration not given | baseline: CYB5R4 knockout over parental | log2 fold change | 4.08 |
| B12 (Pri1) | PRI2 (Saccharomyces cerevisiae, UniProt P20457) | cryo-EM | – | – | – | binding | binds |
| GFLSPAGNRPPPVSAHNSILKTAKGGQSASRGRIRFRADVPRGADESIEDNG (mel-28 1047-1098 (Caenorhabditis elegans, UniProt Q18508); sequence looked up) | gsp-2 (Caenorhabditis elegans, UniProt P48727) | pull-down | – | – | – | binding | binds |
